Measured values collected from several papers.
Lines come from different studies, so protocols differ. ± gives the spread as reported.
KDR: Vascular endothelial growth factor receptor 2 (KDR, Homo sapiens, UniProt P35968)
PDGFRB: Platelet-derived growth factor receptor beta (PDGFRB, Homo sapiens, UniProt P09619)
CTSL: Procathepsin L (CTSL, Homo sapiens, UniProt P07711)
AKR1C3: Aldo-keto reductase family 1 member C3 (AKR1C3, Homo sapiens, UniProt P42330)
NMBR: Neuromedin-B receptor (NMBR, Homo sapiens, UniProt P28336)

For `COc1ccc(CCNc2ncnc3sccc23)cc1OC`, the IC50 was 2.8 µM (NR2F2 (Homo sapiens, UniProt P24468); reporter gene, inhibitor; 293T transfected with NR2F2; 18 h).
The IC50 of `COc1ccc(-c2c[nH]c3ccnc(Nc4ccc(Oc5ccnc6cc(OC)c(OC)cc56)c(F)c4)c3c2=O)cc1` is reported as 1 µM (MET (Homo sapiens, UniProt P08581); kinase activity, inhibitor, HTRF).
`NC1CCC(Nc2nccc(-c3cccnc3Oc3cc(Cl)c(NS(=O)(=O)c4ccccc4Cl)cc3F)n2)CC1` (centres unmarked) has an IC50 of 0.0035 ± 0.0014 µM (Serine/threonine-protein kinase/endoribonuclease IRE2, RNase domain (ERN2, Homo sapiens, UniProt Q76MJ5); RNase activity, inhibitor; together with: XBP1 mini-substrate).
For `COC(=O)c1ccc(Cn2sc3ccccc3c2=O)cc1`, the IC50 was 5.5 µM (HDAC5 (Homo sapiens, UniProt Q9UQL6); enzyme activity, inhibitor).
With `COc1cc2nccc(Oc3ccc(NC(=S)NC4CCOCC4)c(Cl)c3)c2cc1C(N)=O` the IC50 was 0.339 µM (KDR).
The IC50 of `Oc1c(C(Nc2nccs2)c2ccccc2OCc2ccccc2)ccc2cccnc12` (centres unmarked) is reported as 4.88 µM (Genome polyprotein, protease (Dengue virus type 2, UniProt P14340); enzyme activity, inhibitor, fluorescence).
The IC50 of `COc1cc2nccc(Oc3ccc(NC(=S)Nc4cccc(C(F)(F)F)c4)c(Cl)c3)c2cc1C(N)=O` is reported as 0.564 µM (PDGFRB).
With `O=C(CNc1nc(Cl)nc(NNC(=O)c2ccc(Nc3nc(Nc4ccc(C(=O)NNc5nc(Cl)nc(NCC(=O)NO)n5)cc4)nc(Nc4ccc(C(=O)NNc5nc(Cl)nc(NCC(=O)NO)n5)cc4)n3)cc2)n1)NO` the IC50 was 0.541 µM (MMP2 (Homo sapiens, UniProt P08253); enzyme activity, inhibitor, fluorescence).
`O=C(CN1CCOc2ccccc2C1)c1ccc2[nH]c(=O)[nH]c2c1` gave an IC50 of 170 µM (DNA dC->dU-editing enzyme APOBEC-3A (Homo sapiens, UniProt P31941); deaminase activity, inhibitor, alkaline cleavage; 293T lysate, untagged).
With `CC1CC(=O)NN=C1c1ccc(NC(=O)N2Cc3ccncc3C2)cc1` (centres unmarked) the IC50 was 0.0016 µM (NAMPT (Homo sapiens, UniProt P43490); enzyme activity, inhibitor).
`COc1ccccc1CN(CCC(C)C)c1nc(C#N)nc(N2CCOCC2)n1` gave an IC50 of 0.067 µM (CTSL; enzyme activity, inhibitor, fluorescence).
`O=C(O)/C=C\C(=O)NNC(=O)c1cnc2ccccc2c1` has an IC50 of greater than 300 µM (Egl nine homolog 1 (EGLN1, Homo sapiens, UniProt Q9GZT9); inhibitor, AlphaScreen; bimodal curve, rough estimate, together with: 2 µM 2-oxoglutarate).
The IC50 of `CC(C)CCn1c(OC2CCN(C(=O)C3CC3)CC2)nc2c1c(=O)n(C)c(=O)n2C` is reported as 0.087 ± 0.071 µM (ALDH1A1 (Homo sapiens, UniProt P00352)).
With `C=CC[C@@H]1/C=C(\C)C[C@H](C)C[C@H](OC)[C@H]2O[C@@](O)(C(=O)C(=O)N3CCCC[C@H]3C(=O)O[C@H](/C(C)=C/[C@@H]3CC[C@@H](O)[C@H](OC)C3)[C@H](C)[C@@H](O)CC1=O)[C@H](C)C[C@@H]2OC` the IC50 was greater than 10 µM (Peptidyl-prolyl cis-trans isomerase B (Homo sapiens, UniProt P23284); ligand displacement, FP).
`C[C@@]12CC[C@@H]3c4ccc(O)c(I)c4CC[C@H]3[C@@H]1CCC2=O` gave an IC50 of 12.3 µM (AKR1C3; enzyme activity, inhibitor, absorbance; pH 9).
`N#CC(c1ccccc1)(c1ccccc1)c1ccccc1Cl` gave an IC50 of 0.06 µM (KCNN4 (Homo sapiens, UniProt O15554); ion current, inhibitor, patch clamp).
`Cc1nc(NC(=O)N2CCCC2)sc1-c1csc(C(C)(C)C)n1` gave an IC50 of 6.5 µM (PIK3C2B (Homo sapiens, UniProt O00750); enzyme activity, inhibitor).
For `O=c1[nH]c(=S)[nH]c2c1C(c1cc(/N=N/c3ccc(Br)cc3)ccc1O)c1c([nH]c(=S)[nH]c1=O)N2`, the IC50 was 1.02 µM (PTGS2 (Ovis aries, UniProt P79208); enzyme activity, inhibitor, ELISA).
The IC50 of `Cc1ccc2oc(-c3c4c(N)n[nH]c(=O)c4nn3-c3ccc(NC(=O)/C=C/CN(C)C)cc3)c(C)c2c1` is reported as greater than 1 µM (PDGFRB; enzyme activity, inhibitor, ELISA).
The IC50 of `COc1cc2nccc(Oc3cc(F)c(NC(=S)NC4CC4)c(F)c3)c2cc1C(N)=O` is reported as 0.162 µM (PDGFRB).
For `CC(C)CCCN(Cc1ccc(F)cc1)c1nc(C#N)nc(N2CCOCC2)n1`, the IC50 was 0.328 µM (CTSL; enzyme activity, inhibitor, fluorescence).
The IC50 of `COc1ccc2c(c1)C(CC(=O)NC(C(=O)NC(CCc1ccccc1)C(=O)NCc1ccc(C)cc1)C(C)O)CC2=O` (centres unmarked) is reported as greater than 100 µM (PSMB6/PSMB7 (Homo sapiens, UniProt P28072+Q99436); inhibitor).
`CCCCCCCCC/C=C/C=C/C(=O)N[C@H](C(=O)N[C@H]1C[C@@H](O)CCNC(=O)/C=C/[C@H](C)NC1=O)[C@@H](C)O` gave an IC50 of 0.0027 µM (Psmb5 (Mus musculus, UniProt O55234); chymotrypsin-like activity, inhibitor; mouse constitutive proteasome; together with: Suc-LLVY-AMC).
`OCc1ccccc1S[C@@H]1O[C@H](CO)[C@H](O)[C@H](O)[C@H]1O` has an IC50 of 15 µM (SLC5A1 (Homo sapiens, UniProt P13866); transporter uptake, inhibitor, radiometric).
`O=C(O)c1cccc(S(=O)(=O)N2CCc3ccccc3C2)c1` has an IC50 of 0.003 µM (AKR1C3; diaphorase activity; together with: PQ).
For `CNC(=O)c1ccc(Oc2nc3c(c(=O)n(C)c(=O)n3C)n2CCC(C)C)cc1`, the IC50 was greater than 57 µM (HSD17B4 (Homo sapiens, UniProt P51659)).
`CC(C)CCC[C@@H](C)[C@H]1CC[C@H]2[C@@H]3CC=C4C[C@@H](OS(=O)(=O)O)CC[C@]4(C)[C@H]3CC[C@]12C` gave an IC50 of 141 ± 21.8 µM (Prothrombin (F2, Homo sapiens, UniProt P00734); enzyme activity, inhibitor; together with: unfractionated heparin 0 µM).
With `O=C(Nc1cccc(-c2nc3ncccc3o2)c1)c1cccc(F)c1` the IC50 was 0.0095 ± 0.0037 µM (Nucleoside transporter 1 (Plasmodium vivax, UniProt A5K8B0); [3H]adenosine uptake; target-expressing yeast).
`CC(C)(C)NCCCNC(=O)c1ccnc(Br)c1` has an IC50 of greater than 100 µM (Chromobox protein homolog 7 (Homo sapiens, UniProt O95931); methyl-lysine reader binding, inhibitor, AlphaScreen).
`COc1ccc(S(=O)(=O)NCc2c[nH]nc2-c2cccs2)cc1` has an IC50 of greater than 50 µM (MYH11 (Gallus gallus, UniProt P10587); ATPase activity, inhibitor).
With `O=c1[nH]c(=O)c2ncn(CCOCP(=O)(O)OP(=O)(O)OP(=O)(O)O)c2[nH]1` the IC50 was greater than 100 µM (DNA polymerase beta (POLB, Homo sapiens, UniProt P06746); DNA polymerase activity, inhibitor; together with: [3H]dTTP, calf thymus DNA).
`N#Cc1ccc(C2Sc3ccccc3NC3=C2C(=O)c2ccccc23)cc1` (racemic) gave an IC50 of greater than 5 µM (Cytochrome b (MT-CYB, Homo sapiens, UniProt P00156); enzyme activity, inhibitor).
For `COc1cc2nccc(Oc3ccc(NC(=S)NC4CCC(F)(F)CC4)c(Cl)c3)c2cc1C(N)=O`, the IC50 was 1.65 µM (KDR).
The IC50 of `CCCC[C@H](NC(=O)[C@H](Cc1ccccc1)NC(=O)[C@H](Cc1c[nH]cn1)NC(=O)CCNC(=O)[C@@H](NC(=O)[C@H](C)NC(=O)[C@H](Cc1c[nH]c2ccccc12)NC(=O)[C@H](CC(N)=O)NC(=O)[C@@H](Cc1ccc(O)cc1)NC(=O)[C@@H](CO)NC(=O)[C@H](CO)NC(=O)[C@H](N)CO)C(C)C)C(N)=O` is reported as 0.0054 to 0.042 µM (NMBR; NMBR activity, cell-based).
With `C=CC1C(OC2OC(CO)C(O)C(O)C2O)OC=C(C(=O)OC)C1CC1CC(=O)CC(CCc2ccc(O)cc2)O1` (centres unmarked) the IC50 was greater than 100 µM (MAL12 (Saccharomyces cerevisiae S288c, UniProt P53341); enzyme activity, inhibitor, absorbance).
`CCOC(=O)c1c(N)sc2c1CCN(Cc1ccccc1)C2` gave an IC50 of 10.3 µM (Carbamate kinase (Giardia intestinalis, UniProt A8BB85); enzyme activity, ATP luminescence).
The IC50 of `O=C(Nc1ccc(C(=O)Nc2ccc(C(=O)Nc3ccc(S(=O)(=O)O)c4cc(S(=O)(=O)O)cc(S(=O)(=O)O)c34)cc2)cc1)Nc1ccc(C(=O)Nc2ccc(C(=O)Nc3ccc(S(=O)(=O)O)c4cc(S(=O)(=O)O)cc(S(=O)(=O)O)c34)cc2)cc1` is reported as greater than 180 µM (Serine protease 1 (PRSS1, Bos taurus, UniProt P00760); enzyme activity, inhibitor, absorbance; pH 7.4).
With `COc1cc2nccc(Oc3ccc(NC(=S)NC(C)C)c(Cl)c3)c2cc1C(N)=O` the IC50 was 0.0301 µM (KDR).
The IC50 of `COc1ccc(-c2cc(C(F)(F)F)nc(S(=O)(=O)CCC(=O)Nc3ccc(C)cc3)n2)cc1` is reported as greater than 50 µM (WRN (Homo sapiens, UniProt Q14191); ATPase activity, inhibitor, ADP-Glo; together with: ATP 1 mM).
For `CNC(=O)c1ccccc1Oc1nc(Nc2cc(OC)c(OC)c(OC)c2)ncc1Br`, the IC50 was 0.071 µM (MAP3K9 (Homo sapiens, UniProt P80192); enzyme activity, inhibitor).
With `CN(C(=O)c1ccn2ncc(-c3ccc(C(N)=O)cc3)c2c1)c1ccc(C#N)cn1` the IC50 was greater than 10 µM (PKN1 (Homo sapiens, UniProt Q16512); enzyme activity, inhibitor).
For `C#CCn1c(Oc2cccc(C3(C(F)(F)F)N=N3)c2)nc2c1c(=O)n(CCCO)c(=O)n2C`, the IC50 was 0.045 µM (TRPC4 (Homo sapiens, UniProt Q9UBN4); calcium signal, inhibitor, fluorescence).
`COC(=O)c1cc2c(Oc3ccc(NC(=S)NC4CC4)c(Cl)c3)ccnc2cc1OC` has an IC50 of 0.0725 µM (PDGFRB).
For `CC(=O)Nc1ccc(C(=O)Nc2cc(-c3cccs3)ccc2N)cc1`, the IC50 was greater than 30 µM (HDAC10 (Homo sapiens, UniProt Q969S8); deacetylase activity, inhibitor, recombinant enzyme).
The IC50 of `O=C(/C=C/c1ccc(O)cc1)c1c(O)cc(O)cc1O` is reported as greater than 100 µM (CTSL; enzyme activity, inhibitor, fluorescence).
`O=C(N1CCCC1)n1cc(-c2ccc(-c3ccccc3)cc2)nn1` gave an IC50 of 0.00014 to 0.00017 µM (Platelet-activating factor acetylhydrolase 2, cytoplasmic (Mus musculus, UniProt Q8VDG7); enzyme activity in cells, inhibitor).
For `CCCc1c(OC)c(=O)c2c(O)c(C(=O)OC)c(OC)c3c4c(OC)c(C(=O)OC)c(O)c5c(=O)c(OC)c(CCC)c(c1c23)c54`, the IC50 was 3.5 µM (protein kinase C; enzyme activity, inhibitor; whole enzyme).
`CC(C)CCC[C@@H](C)[C@H]1CCC([C@@H]2CC[C@H]3C[C@H](O)CC[C@]3(C)[C@H]2O)[C@]1(C)CC(=O)O` (some centres unmarked) gave an IC50 of 4.6 µM (Bile acid receptor (NR1H4, Homo sapiens, UniProt Q96RI1); transactivation, antagonist, SHP promoter luciferase reporter; HEK293T; together with: GW4064 10 µM).
With `CC(C)[C@H](NC(=O)[C@H](C)NC(=O)[C@H](Cc1c[nH]c2ccccc12)NC(=O)[C@H](Cc1c[nH]cn1)NC(=O)[C@H](N)Cc1ccccc1)C(=O)N[C@H](C)C(=O)N[C@@H](Cc1c[nH]cn1)C(=O)N1CCC[C@@H]1CN[C@@H](Cc1ccccc1)C(N)=O` the IC50 was greater than 10 µM (NMBR; inositol phosphate generation, antagonist; Balb 3T3 expressing NMBR; together with: neuromedin B 1 nM).
`COc1cc2nccc(Oc3ccc(NC(=S)NC4CC4)c(Cl)c3)c2cc1C(=O)N(C)C` has an IC50 of 0.503 µM (KDR).
The IC50 of `[2H]C1([2H])CC[C@@H](C[C@@H](C#N)NC(=O)[C@@H]2[C@@H]3[C@H](CN2C(=O)[C@@H](NC(=O)C(F)F)C(C)(C)C)C3(C)C)C(=O)N1` is reported as no less than 1000 µM (CTSL; enzyme activity, inhibitor).
The IC50 of `COc1cc2nccc(Oc3ccc(NC(=S)NCCC#N)c(Cl)c3)c2cc1C(N)=O` is reported as 0.208 µM (KDR).
The IC50 of `CC[C@H](C)[C@@H]1NC(=O)[C@H](CCCNC(=N)N)NC(=O)[C@H](CCCNC(=N)N)NC(=O)[C@H](CC(C)C)NC(=O)[C@@H](NC(=O)[C@H](C)NC(=O)[C@H](C)NC(C)=O)CSCc2ccc(cn2)-c2ccc(nc2)CSC[C@@H](C(=O)N[C@H](C(=O)N[C@@H](CC(N)=O)C(=O)N[C@@H](CC(C)C)C(=O)N[C@@H](CCCNC(=N)N)C(=O)N[C@@H](CCC(N)=O)C(=O)N[C@@H](CCCCN)C(=O)N[C@@H](CC(C)C)C(=O)N[C@@H](CC(C)C)C(=O)N[C@@H](CC(N)=O)C(N)=O)C(C)C)NC(=O)[C@H](CC(=O)O)NC(=O)CNC1=O` is reported as 0.041 µM (MCL1 (Homo sapiens, UniProt Q07820); ligand displacement, FP).
